Experimental data of several laboratories.
Each line is one published result; not all experiments were run side by side. ± gives the spread as reported.
Chymotrypsin-C: Chymotrypsin-C (Homo sapiens, UniProt Q99895)
UniProt Q99895, sequence (whole entry, looked up): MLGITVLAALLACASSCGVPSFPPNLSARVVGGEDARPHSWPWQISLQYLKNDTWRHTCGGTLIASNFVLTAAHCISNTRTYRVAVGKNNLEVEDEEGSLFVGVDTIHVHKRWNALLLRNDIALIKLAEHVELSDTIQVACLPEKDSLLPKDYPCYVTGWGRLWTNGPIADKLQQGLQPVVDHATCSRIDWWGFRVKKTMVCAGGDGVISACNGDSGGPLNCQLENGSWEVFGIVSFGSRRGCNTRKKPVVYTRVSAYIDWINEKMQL
14-3-3 protein epsilon: 14-3-3 protein epsilon (Homo sapiens, UniProt P62258)
UniProt P62258, sequence (whole entry, looked up): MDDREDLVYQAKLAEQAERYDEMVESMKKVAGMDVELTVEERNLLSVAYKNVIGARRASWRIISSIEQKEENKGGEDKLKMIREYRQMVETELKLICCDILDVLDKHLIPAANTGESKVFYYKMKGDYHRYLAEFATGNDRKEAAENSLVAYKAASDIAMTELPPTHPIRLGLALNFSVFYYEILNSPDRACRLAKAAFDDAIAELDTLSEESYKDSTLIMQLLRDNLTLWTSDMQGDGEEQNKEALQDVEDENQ
UniProt Q8I2X3, sequence (whole entry, looked up): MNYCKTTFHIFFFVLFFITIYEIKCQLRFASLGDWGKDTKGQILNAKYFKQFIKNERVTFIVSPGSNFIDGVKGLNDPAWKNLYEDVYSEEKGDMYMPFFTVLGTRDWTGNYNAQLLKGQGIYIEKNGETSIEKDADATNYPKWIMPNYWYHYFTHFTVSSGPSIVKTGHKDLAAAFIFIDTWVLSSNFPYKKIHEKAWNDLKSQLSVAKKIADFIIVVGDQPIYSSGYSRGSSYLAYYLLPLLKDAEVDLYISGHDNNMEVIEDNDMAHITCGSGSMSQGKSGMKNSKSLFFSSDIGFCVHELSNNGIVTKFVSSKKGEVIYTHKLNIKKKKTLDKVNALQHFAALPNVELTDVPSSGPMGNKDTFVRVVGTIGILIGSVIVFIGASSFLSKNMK
UniProt Q8TF76, sequence (whole entry, looked up): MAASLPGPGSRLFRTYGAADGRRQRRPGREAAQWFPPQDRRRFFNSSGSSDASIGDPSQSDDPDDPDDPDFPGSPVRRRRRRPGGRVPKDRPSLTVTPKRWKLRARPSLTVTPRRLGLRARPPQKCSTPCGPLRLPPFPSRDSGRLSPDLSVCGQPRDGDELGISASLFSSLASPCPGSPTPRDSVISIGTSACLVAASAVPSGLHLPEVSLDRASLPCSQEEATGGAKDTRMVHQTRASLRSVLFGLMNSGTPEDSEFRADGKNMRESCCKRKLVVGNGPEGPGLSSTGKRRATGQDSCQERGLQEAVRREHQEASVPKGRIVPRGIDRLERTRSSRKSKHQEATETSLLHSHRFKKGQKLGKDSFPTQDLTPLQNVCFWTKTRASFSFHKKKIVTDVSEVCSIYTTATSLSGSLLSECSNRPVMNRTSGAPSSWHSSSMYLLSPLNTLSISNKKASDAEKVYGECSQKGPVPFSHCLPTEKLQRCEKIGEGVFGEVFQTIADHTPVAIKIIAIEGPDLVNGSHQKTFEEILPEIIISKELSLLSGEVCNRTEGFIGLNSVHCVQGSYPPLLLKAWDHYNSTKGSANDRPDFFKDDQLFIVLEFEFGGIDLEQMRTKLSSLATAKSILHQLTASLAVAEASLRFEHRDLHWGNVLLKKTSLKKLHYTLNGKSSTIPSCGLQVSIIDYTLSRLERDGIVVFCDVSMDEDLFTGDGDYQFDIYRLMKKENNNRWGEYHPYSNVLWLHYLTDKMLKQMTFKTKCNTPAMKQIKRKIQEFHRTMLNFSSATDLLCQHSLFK
UniProt P53299, sequence (whole entry, looked up): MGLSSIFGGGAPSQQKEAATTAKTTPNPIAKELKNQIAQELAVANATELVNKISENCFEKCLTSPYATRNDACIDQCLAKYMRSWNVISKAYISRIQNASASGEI
UniProt P57744, sequence (whole entry, looked up): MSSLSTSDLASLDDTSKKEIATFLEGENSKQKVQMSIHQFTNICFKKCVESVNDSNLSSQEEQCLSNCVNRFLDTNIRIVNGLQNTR
UniProt Q12884, sequence (whole entry, looked up): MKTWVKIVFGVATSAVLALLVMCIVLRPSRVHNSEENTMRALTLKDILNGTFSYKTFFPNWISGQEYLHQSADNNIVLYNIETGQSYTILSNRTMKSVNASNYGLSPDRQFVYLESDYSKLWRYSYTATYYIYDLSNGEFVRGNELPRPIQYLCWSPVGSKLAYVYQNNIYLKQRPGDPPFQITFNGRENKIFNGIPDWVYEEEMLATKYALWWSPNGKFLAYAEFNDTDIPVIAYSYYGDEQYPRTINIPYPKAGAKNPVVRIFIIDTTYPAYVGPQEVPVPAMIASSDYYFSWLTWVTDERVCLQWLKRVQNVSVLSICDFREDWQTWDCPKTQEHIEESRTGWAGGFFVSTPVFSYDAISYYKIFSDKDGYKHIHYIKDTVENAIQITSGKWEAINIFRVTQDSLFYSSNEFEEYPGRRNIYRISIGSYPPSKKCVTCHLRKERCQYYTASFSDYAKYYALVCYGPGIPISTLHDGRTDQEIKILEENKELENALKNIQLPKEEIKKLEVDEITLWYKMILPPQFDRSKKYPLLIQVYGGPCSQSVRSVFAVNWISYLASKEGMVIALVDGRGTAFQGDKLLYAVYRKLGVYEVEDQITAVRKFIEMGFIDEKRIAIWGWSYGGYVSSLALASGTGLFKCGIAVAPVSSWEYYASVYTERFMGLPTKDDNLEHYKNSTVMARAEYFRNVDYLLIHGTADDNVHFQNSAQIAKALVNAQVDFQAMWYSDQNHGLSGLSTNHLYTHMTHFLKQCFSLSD
UniProt Q9WVQ1, sequence (whole entry, looked up): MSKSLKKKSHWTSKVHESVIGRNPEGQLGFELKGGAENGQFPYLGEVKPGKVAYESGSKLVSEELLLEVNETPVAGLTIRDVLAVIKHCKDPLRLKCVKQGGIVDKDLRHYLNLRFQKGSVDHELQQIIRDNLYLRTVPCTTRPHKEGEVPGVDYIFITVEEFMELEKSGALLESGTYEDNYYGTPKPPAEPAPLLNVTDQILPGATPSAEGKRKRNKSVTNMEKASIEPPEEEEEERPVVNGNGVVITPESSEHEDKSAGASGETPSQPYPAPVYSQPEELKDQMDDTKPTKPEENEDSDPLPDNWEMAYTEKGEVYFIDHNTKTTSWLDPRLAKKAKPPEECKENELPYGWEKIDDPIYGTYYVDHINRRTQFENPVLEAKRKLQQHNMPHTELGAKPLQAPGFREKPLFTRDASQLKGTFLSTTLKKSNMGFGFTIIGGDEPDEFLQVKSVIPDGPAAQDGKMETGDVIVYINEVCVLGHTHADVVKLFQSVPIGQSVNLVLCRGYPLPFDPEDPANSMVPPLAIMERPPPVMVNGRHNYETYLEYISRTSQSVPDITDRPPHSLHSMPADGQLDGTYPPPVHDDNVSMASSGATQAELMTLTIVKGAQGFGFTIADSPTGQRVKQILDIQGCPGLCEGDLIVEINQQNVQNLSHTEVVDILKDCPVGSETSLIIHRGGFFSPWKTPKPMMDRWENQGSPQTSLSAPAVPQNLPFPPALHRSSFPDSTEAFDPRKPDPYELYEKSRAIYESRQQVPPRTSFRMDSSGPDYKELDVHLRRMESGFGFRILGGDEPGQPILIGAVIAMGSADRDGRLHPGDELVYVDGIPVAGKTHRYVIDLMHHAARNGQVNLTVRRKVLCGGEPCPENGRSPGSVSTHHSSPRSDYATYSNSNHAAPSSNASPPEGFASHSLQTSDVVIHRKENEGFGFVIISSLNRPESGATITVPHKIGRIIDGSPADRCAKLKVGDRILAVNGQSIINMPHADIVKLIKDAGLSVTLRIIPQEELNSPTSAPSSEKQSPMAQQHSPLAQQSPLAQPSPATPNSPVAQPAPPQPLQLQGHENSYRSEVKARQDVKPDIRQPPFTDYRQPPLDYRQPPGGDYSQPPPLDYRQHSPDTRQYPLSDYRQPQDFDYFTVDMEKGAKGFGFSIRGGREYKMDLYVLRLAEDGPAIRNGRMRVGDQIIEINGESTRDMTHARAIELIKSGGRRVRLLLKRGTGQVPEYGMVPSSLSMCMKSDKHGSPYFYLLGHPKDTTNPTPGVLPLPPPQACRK
UniProt Q9UI08, sequence (whole entry, looked up): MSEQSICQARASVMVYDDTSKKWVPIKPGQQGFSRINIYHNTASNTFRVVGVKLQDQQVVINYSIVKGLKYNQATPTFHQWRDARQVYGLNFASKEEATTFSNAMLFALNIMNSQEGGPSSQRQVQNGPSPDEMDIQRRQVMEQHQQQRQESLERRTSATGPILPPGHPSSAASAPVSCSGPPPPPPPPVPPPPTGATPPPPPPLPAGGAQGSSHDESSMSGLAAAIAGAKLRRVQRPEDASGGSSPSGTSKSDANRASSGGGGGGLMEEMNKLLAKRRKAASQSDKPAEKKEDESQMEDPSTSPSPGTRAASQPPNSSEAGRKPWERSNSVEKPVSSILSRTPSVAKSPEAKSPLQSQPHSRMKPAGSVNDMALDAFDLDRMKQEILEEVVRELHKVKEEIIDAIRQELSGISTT

CC(C)C[C@H](NC(=O)[C@H](CC(=O)O)NC(=O)[C@H](CC(=O)O)NC(=O)[C@@H](NC(=O)[C@H](Cc1c[nH]c2ccccc12)NC(=O)CNC(=O)[C@H](CCCNC(=N)N)NC(=O)[C@@H](N)CCCCN)[C@@H](C)O)C(=O)N[C@@H](CS)C(=O)N[C@@H](Cc1ccc(O)cc1)C(=O)NCC(=O)N[C@H](C(=O)NCC(=O)N[C@@H](C)C(=O)O)[C@@H](C)O — Kd (TIM13/TIM8 (Saccharomyces cerevisiae, UniProt P53299+P57744); binding, SPR; with: immobilized Tim23 peptides): 393000 nM
CC(C)C[C@@H]1NC(=O)[C@H](CC(C)C)NC(=O)[C@H](CC(C)C)NC(=O)[C@H](Cc2c[nH]c3ccccc23)NC(=O)[C@@H]2CSSC[C@@H]3NC(=O)[C@H]([C@@H](C)O)NC(=O)[C@H](CC(N)=O)NC(=O)[C@H](CSSC[C@@H](C(=O)N[C@@H](CC(=O)O)C(=O)N[C@@H](CCC(N)=O)C(=O)O)NC1=O)NC(=O)[C@H](CCCCN)NC(=O)[C@H](CC(=O)O)NC(=O)[C@H](CCCCN)NC(=O)[C@H](Cc1ccccc1)NC(=O)[C@H]([C@@H](C)O)NC(=O)[C@H]([C@@H](C)O)NC(=O)CNC(=O)[C@@H]1CCCN1C(=O)[C@H](CCC(=O)O)NC(=O)[C@@H](NC(=O)[C@@H](NC(=O)[C@@H](NC(=O)[C@H](CCC(=O)O)NC(=O)[C@H](CO)NC(=O)CN)C(C)C)[C@@H](C)O)CSSC[C@H](NC(=O)[C@H](CCCNC(=N)N)NC3=O)C(=O)NCC(=O)N[C@@H](CO)C(=O)N[C@@H](CC(=O)O)C(=O)NCC(=O)N[C@@H](CCCCN)C(=O)N[C@@H](CO)C(=O)N[C@@H](C)C(=O)N[C@@H](Cc1c[nH]c3ccccc13)C(=O)N2 — Kd (Chymotrypsin-C; cell-free assay, FP; pH 8): 31.5 nM
CC(=O)N[C@@H](CCCNC(=N)N)C(=O)N[C@H](C(=O)N[C@@H](CCCCN)C(=O)N[C@@H](CO)C(=O)N[C@@H](CCCNC(=N)N)C(=O)N[C@H](C(=O)N[C@@H](Cc1c[nH]c2ccccc12)C(=O)N[C@@H](C)C(=O)N[C@H](C(N)=O)C(C)C)[C@@H](C)OP(=O)(O)O)[C@@H](C)O — Kd (14-3-3 protein epsilon; binding, SPR; pH 7.4): 212 nM
C[C@H](NC(=O)[C@H](Cc1c[nH]c2ccccc12)NC(=O)[C@H](CO)NC(=O)[C@H](Cc1ccc(O)cc1)NC(=O)[C@@H](N)CC(=O)O)C(=O)N[C@@H](CCC(=O)O)C(=O)N[C@@H](CCC(=O)O)C(=O)N[C@@H](CCC(=O)O)C(=O)N[C@@H](CCC(=O)O)C(=O)N[C@@H](CCC(=O)O)C(=O)N[C@@H](CCC(=O)O)C(=O)N[C@@H](CC(=O)O)C(=O)N[C@@H](CCC(=O)O)C(=O)N[C@@H](CCC(=O)O)C(=O)O — Kd (Histone H2B 1.1/Histone H2A type 1 (Xenopus laevis, UniProt P02281+P06897); binding, intrinsic tryptophan fluorescence; pH 7.6, 20 °C, with: H2A/H2B): 300 ± 100 nM
C#CC[C@H](NC(=O)CNC(=O)[C@H](CO)NC(=O)[C@@H]1CCCCNC(=O)CCCC(=O)N[C@@H](CCSC)C(=O)N[C@@H](Cc2c[nH]c3ccccc23)C(=O)N2CCC[C@H]2C(=O)N[C@@H](Cc2c[nH]cn2)C(=O)N[C@@H](CCCNC(=N)N)C(=O)N[C@@H](C(C)C)C(=O)N[C@@H]([C@@H](C)O)C(=O)N[C@@H](C)C(=O)N(C)[C@@H](C)C(=O)N1)C(=O)O — Kd (Microtubule-associated protein 1 light chain 3 alpha (Homo sapiens, UniProt Q9H492); fluorescence polarization; with: fluorescein-labelled peptide): 116 ± 14 nM
CC(C)C[C@H](NC(=O)[C@H](CO)NC(=O)[C@@H]1CCCN1C(=O)[C@H](CCC(N)=O)NC(=O)[C@@H](NC(=O)[C@H](C)NC(=O)[C@H](CCCCN)NC(=O)[C@H](CC(C)C)NC(=O)[C@H](Cc1ccc(O)cc1)NC(=O)[C@H](COP(=O)(O)O)NC(=O)[C@H](CCCNC(=N)N)NC(=O)[C@H](CCCNC(=N)N)NC(=O)[C@H](CCCNC(=N)N)NC(=O)[C@H](C)NC(=O)[C@H](C)N)[C@@H](C)O)C(=O)O — Kd (Membrane-associated guanylate kinase, WW and PDZ domain-containing protein 2 (Magi2, Mus musculus, UniProt Q9WVQ1); ITC; pH 8.0, 25 °C, with: tandem peptide): 200 ± 20 nM
CSCC[C@@H]1NC(=O)[C@H](CC(C)C)NC(=O)[C@H]([C@@H](C)O)NC(=O)[C@@H]2CSSC[C@@H]3NC(=O)[C@H]([C@@H](C)O)NC(=O)[C@H](CC(N)=O)NC(=O)[C@H](CSSC[C@@H](C(=O)N[C@@H](CC(=O)O)C(=O)N[C@@H](CCC(N)=O)C(=O)O)NC(=O)[C@H](CC(C)C)NC1=O)NC(=O)[C@H](CCCCN)NC(=O)[C@H](CC(=O)O)NC(=O)[C@H](CCCCN)NC(=O)[C@H](Cc1ccccc1)NC(=O)[C@H]([C@@H](C)O)NC(=O)[C@H]([C@@H](C)O)NC(=O)CNC(=O)[C@@H]1CCCN1C(=O)[C@H](CCC(=O)O)NC(=O)[C@@H](NC(=O)[C@@H](NC(=O)[C@@H](NC(=O)[C@H](CCC(=O)O)NC(=O)[C@H](CO)NC(=O)CN)C(C)C)[C@@H](C)O)CSSC[C@H](NC(=O)[C@H](CCCNC(=N)N)NC3=O)C(=O)NCC(=O)N[C@@H](CO)C(=O)N[C@@H](CC(=O)O)C(=O)NCC(=O)N[C@@H](CCCCN)C(=O)N[C@@H](CO)C(=O)N[C@@H](C)C(=O)N[C@@H](Cc1ccc(O)cc1)C(=O)N2 — Kd (Chymotrypsin-C; cell-free assay, FP; pH 8): 0.2 nM
CC(=O)NC1C(OC2C(O)C(CO)OC(O)C2OC2OC(C)C(O)C(O)C2O)OC(CO)C(O)C1O (centres unmarked) — Kd (Intermedilysin, domain 4 (Streptococcus intermedius, UniProt Q9LCB8); binding): 8270 nM
COc1ccc2cc1Oc1cc3c(cc1OC)CCN(C)C3Cc1ccc(cc1)Oc1c(O)c(OC)cc3c1C(C2)N(C)CC3 (centres unmarked) — Kd (Glideosome-associated protein 50 (GAP50, Plasmodium falciparum, UniProt Q8I2X3); binding, surface plasmon resonance; 1:1 binding model): 25300 nM
CC(=O)N[C@@H](CCCNC(=N)N)C(=O)N[C@H](C(=O)N[C@@H](CCCCN)C(=O)N[C@@H](CO)C(=O)N[C@@H](CCCNC(=N)N)C(=O)N[C@H](C(=O)N[C@@H](Cc1c[nH]c2ccccc12)C(=O)N[C@@H](C)C(=O)N1Cc2ccccc2C[C@H]1C(N)=O)[C@@H](C)OP(=O)(O)O)[C@@H](C)O — Kd (14-3-3 protein epsilon; binding, SPR; pH 7.4): 30.9 nM
CC(C)C[C@H](NC(=O)[C@@H]1CCCN1C(=O)[C@H](CCCCN)NC(=O)[C@@H](N)CO)C(=O)N1CCC[C@H]1C(=O)N[C@@H](CCC(=O)O)C(=O)N[C@H](C(=O)N[C@H](C(=O)N[C@@H](CC(=O)O)C(=O)N[C@@H](CCC(=O)O)C(=O)N[C@@H](Cc1ccc(O)cc1)C(=O)NCC(=O)NCCOCCOCCOCCOCCC(=O)N[C@@H](CCCCNC(=O)CC[C@H](C(=O)O)N1CCN(CC(=O)O)CCN(CC(=O)O)CC1)C(=O)N1CCN(CCCN(C)c2ccc3nccc(C(=O)NCC(=O)N4CC(F)(F)C[C@H]4C#N)c3c2)CC1)[C@@H](C)O)C(C)C [copper-64 labelled] — Kd (FAP (Homo sapiens, UniProt Q12884); binding, 64Cu radioligand saturation; HT-1080 expressing hFAP; 1 h, 37 °C, with: FAPI-04 1 µM for nonspecific): 2.07 nM
O=C(N[C@@H]1c2ccccc2C[C@H]1N1CCCC1)c1ccc(-c2ccnc3[nH]ccc23)nc1 — Kd (HASPIN (Homo sapiens, UniProt Q8TF76); binding, competition with immobilised ligand): 21 nM
CC(=O)N[C@@H](CO)C(=O)N[C@@H](Cc1ccccc1)C(=O)N[C@@H](CCC(=O)O)C(=O)N[C@@H](Cc1ccccc1Cl)C(=O)N1CCC[C@]12C=C[C@@H]1CC[C@@H](C(=O)N3CC[C@@H]4C=C[C@H]5CC[C@@H](C(=O)N[C@H](C(=O)N[C@@H](CCC(=O)O)C(=O)N[C@@H](CC(=O)O)C(=O)N[C@@H](CCC(=O)O)C(=O)N[C@@H](CC(C)C)C(N)=O)[C@@H](C)O)N5C(=O)[C@H]43)N1C2=O — Kd (Ena/VASP-like protein, EVH1 domain (EVL, Homo sapiens, UniProt Q9UI08); isothermal titration calorimetry): 260 nM
CSCC[C@@H]1NC(=O)[C@H](Cc2ccccc2)NC(=O)[C@H]([C@@H](C)O)NC(=O)[C@@H]2CSSC[C@@H]3NC(=O)[C@H]([C@@H](C)O)NC(=O)[C@H](CC(N)=O)NC(=O)[C@H](CSSC[C@@H](C(=O)N[C@@H](CC(=O)O)C(=O)N[C@@H](CCC(N)=O)C(=O)O)NC(=O)[C@H](CC(C)C)NC1=O)NC(=O)[C@H](CCCCN)NC(=O)[C@H](CC(=O)O)NC(=O)[C@H](CCCCN)NC(=O)[C@H](Cc1ccccc1)NC(=O)[C@H]([C@@H](C)O)NC(=O)[C@H]([C@@H](C)O)NC(=O)CNC(=O)[C@@H]1CCCN1C(=O)[C@H](CCC(=O)O)NC(=O)[C@@H](NC(=O)[C@@H](NC(=O)[C@@H](NC(=O)[C@H](CCC(=O)O)NC(=O)[C@H](CO)NC(=O)CN)C(C)C)[C@@H](C)O)CSSC[C@H](NC(=O)[C@H](CCCNC(=N)N)NC3=O)C(=O)NCC(=O)N[C@@H](CO)C(=O)N[C@@H](CC(=O)O)C(=O)NCC(=O)N[C@@H](CCCCN)C(=O)N[C@@H](CO)C(=O)N[C@@H](C)C(=O)N[C@@H](Cc1ccc(O)cc1)C(=O)N2 — Kd (Chymotrypsin-C; cell-free assay, FP; pH 8): 1.08 nM

For quick reference, copied from above:
CC(=O)N[C@@H](CCCNC(=N)N)C(=O)N[C@H](C(=O)N[C@@H](CCCCN)C(=O)N[C@@H](CO)C(=O)N[C@@H](CCCNC(=N)N)C(=O)N[C@H](C(=O)N[C@@H](Cc1c[nH]c2ccccc12)C(=O)N[C@@H](C)C(=O)N1Cc2ccccc2C[C@H]1C(N)=O)[C@@H](C)OP(=O)(O)O)[C@@H](C)O — Kd (14-3-3 protein epsilon; binding, SPR; pH 7.4): 30.9 nM
CC(=O)N[C@@H](CCCNC(=N)N)C(=O)N[C@H](C(=O)N[C@@H](CCCCN)C(=O)N[C@@H](CO)C(=O)N[C@@H](CCCNC(=N)N)C(=O)N[C@H](C(=O)N[C@@H](Cc1c[nH]c2ccccc12)C(=O)N[C@@H](C)C(=O)N[C@H](C(N)=O)C(C)C)[C@@H](C)OP(=O)(O)O)[C@@H](C)O — Kd (14-3-3 protein epsilon; binding, SPR; pH 7.4): 212 nM
